Experimental data collected from several papers.
A part holds a random share of what one study measured. Positions count from the first letter of the parent shown.
Sequence of UniProt Q9UQM7 (whole entry, looked up): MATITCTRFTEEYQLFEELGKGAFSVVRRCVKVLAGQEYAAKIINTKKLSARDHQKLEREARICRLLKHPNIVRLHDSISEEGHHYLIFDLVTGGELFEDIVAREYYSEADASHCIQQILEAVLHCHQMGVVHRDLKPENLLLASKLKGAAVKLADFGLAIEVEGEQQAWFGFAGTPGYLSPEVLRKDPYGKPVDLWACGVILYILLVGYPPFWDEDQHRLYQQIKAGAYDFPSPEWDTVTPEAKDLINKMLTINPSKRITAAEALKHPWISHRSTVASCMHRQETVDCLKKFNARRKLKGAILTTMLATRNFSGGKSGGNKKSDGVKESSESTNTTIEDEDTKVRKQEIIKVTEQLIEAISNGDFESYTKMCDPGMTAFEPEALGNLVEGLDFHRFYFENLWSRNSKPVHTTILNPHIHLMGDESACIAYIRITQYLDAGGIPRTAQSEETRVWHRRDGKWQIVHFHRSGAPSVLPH
Sequence of UniProt P08588 (whole entry, looked up): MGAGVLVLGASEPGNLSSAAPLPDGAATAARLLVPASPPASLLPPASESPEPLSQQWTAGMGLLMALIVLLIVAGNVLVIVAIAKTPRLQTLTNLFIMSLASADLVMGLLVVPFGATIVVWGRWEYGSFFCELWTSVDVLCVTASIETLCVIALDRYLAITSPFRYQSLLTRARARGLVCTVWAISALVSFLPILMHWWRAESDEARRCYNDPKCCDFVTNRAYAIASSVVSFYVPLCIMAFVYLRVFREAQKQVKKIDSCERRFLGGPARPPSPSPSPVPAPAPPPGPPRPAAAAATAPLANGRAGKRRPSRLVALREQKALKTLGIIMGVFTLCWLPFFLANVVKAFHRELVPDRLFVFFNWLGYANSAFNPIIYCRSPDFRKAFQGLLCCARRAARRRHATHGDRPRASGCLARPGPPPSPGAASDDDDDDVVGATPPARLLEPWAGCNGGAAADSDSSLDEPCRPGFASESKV

Series 1 — target: tungstate, free oxyanion; method: microfluidic competitive inhibition; sample: in vitro, cell-free expressed; tested at: not given; direction: lower = stronger binding; measurement: oxyanion analog dissociation constant
Setting: derived from inhibition constants, unchanged parent 2230 nM
Parent: PafA, mature enzyme, eGFP fusion (Elizabethkingia meningoseptica, UniProt Q9KJX5); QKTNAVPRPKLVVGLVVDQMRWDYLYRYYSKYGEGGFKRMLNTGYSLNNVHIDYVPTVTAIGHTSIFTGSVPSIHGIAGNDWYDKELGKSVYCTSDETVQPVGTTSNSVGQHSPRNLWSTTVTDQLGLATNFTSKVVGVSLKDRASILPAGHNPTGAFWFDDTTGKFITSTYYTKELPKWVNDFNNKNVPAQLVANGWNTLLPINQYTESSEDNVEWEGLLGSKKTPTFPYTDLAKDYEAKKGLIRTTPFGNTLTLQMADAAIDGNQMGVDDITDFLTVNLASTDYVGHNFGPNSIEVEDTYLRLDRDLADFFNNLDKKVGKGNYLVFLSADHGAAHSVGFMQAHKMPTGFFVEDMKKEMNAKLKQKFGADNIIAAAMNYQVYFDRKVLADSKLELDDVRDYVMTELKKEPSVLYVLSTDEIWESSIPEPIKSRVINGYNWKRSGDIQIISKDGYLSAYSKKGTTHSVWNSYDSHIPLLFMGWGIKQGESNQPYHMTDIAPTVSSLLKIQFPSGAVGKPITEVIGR
G62A: 0.0834 µM
V270G: 2.18 µM
V279G: 1.2 µM
M40V: 2.41 µM
G44A: 1.7 µM
K187V: 2.44 µM
F67V: 0.843 µM
M356V: 2.08 µM

Series 2 — target: CCNA2, cyclin fold, Cln2 fusion (human); method: yeast growth competition, sequencing; sample: yeast; setting: strong parent motif; reference: not given; direction: higher = stronger binding; measurement: normalised enrichment score
Parent: viral docking peptide; KGVKRKLFAEDSS; partner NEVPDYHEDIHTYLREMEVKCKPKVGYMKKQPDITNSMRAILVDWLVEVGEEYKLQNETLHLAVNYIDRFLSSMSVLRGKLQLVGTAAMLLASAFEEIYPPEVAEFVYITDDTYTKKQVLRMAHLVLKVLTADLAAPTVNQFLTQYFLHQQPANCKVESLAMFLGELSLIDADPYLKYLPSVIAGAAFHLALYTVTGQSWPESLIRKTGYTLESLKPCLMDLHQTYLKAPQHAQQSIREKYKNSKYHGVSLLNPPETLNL
K4V: 5.62
S12D: 6.1
R5V: 3.14
E10Q: 5.4
S12Y: 5.84
G2S: 6.53
E10I: 5.79
R5L: 1.83

Mixed results
CC(C)[C@@]1(NC(=O)[C@H]2C[C@H]3c4cccc5[nH]cc(c45)C[C@@H]3N(C)C2)O[C@]2(O)[C@H]3CCCN3C(=O)CN2C1=O — EC50 (ADRB1 (Homo sapiens, UniProt P08588); agonist): ≥ 100 µM
C[C@H]1[C@H](c2ccc(Cl)cc2)SC(=O)N1C(=O)NC1CCCCC1 — inhibition (CAMK2A (Homo sapiens, UniProt Q9UQM7); enzyme activity, inhibitor; 10 µM): 16%

Repeated from above (series 1):
V279G: 1.2 µM
